Measurements collected from several papers.
Each numbered part is a random draw from the data of one study; scales do not carry over between parts.

Block 1
Target: RING finger protein unkempt homolog, zinc fingers 1-6, GST-SBP tag (UNK, Homo sapiens, UniProt Q9C0B0, residues 30-357)
Sequence of UniProt Q9C0B0 (30-357, looked up): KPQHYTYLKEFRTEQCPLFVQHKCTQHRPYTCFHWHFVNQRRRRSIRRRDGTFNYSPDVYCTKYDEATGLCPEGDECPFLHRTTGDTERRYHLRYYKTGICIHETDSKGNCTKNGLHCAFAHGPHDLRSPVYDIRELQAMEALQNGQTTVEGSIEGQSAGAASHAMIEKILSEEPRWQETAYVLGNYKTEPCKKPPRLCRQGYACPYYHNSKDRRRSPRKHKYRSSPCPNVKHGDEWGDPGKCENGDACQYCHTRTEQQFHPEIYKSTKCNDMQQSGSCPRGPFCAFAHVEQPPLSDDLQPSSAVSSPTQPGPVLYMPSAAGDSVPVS
Technique: RNA Bind-n-Seq
Molecule type: RNA
Medium: in vitro
Tested at: not given
Notes: RNA with constant flanks, human and mouse sites, ends assumed
Baseline: input RNA pool
Reading: higher = stronger binding
Shared flanks, not repeated: GGGAGUUCUACAGUCCGACGAUC … CAACAGAGGAUUGAGCAUCA
| Oligonucleotide | bound/input enrichment |
| --- | --- |
| UUAAGUGUUCUCCGUUUGCUCCUUGUGACCAUGGGACUCCUCUUUGUUUUGCUCCUCCUCCUGAUCAUCCUUACUGAGUCUGACCUUGACGUUGCUUUUUUCCGAGAUAUCCGCCAGACC | 0.224 ratio |
| AUUGAAAUAUUCACUGACCUCAGCAGCCGAUUCAGCAAAAGUCAGCUGGAUAUUAUAAUUCAUAGCUUGAAGAAAUGUGACAUCUCCCUGCAAUUCUUCUUGCCUUUCUCACUUGGCAAG | 0.229 ratio |
| GUUUACGAGGUCACCUCUACCAAGUACACUCGUGAUAUCUAUAAAGAGCUCCUCAUCUCCUUAGUGGCCUCACUCUUCAUGGGCUUUGGAGUCCUCUUCCUGCUGCUCUGGGUUGGCAUC | 0.237 ratio |
| GAGGAUCCGUACCCACACAAGUUCCACGUGGACAUCUCACUCACUCAGUUCAUCCAAGAAUAUAGUCACCUGCAGCCUGGGGACCACCUGACUGAUGUCACCCUCAAAGUGGCAGGCCGC | 0.265 ratio |
| AAUCUAAAACUUGCAACGGAACUCCCAGAUGCUGAACUUAGAAGGACUUUAUGGUCUUUAGUAGCUUUUCCCAAGCUCAAACGGCAAGUUUUGUUGUAUGACCCUCAAGUCAACUCACCC | 0.202 ratio |
| UCACUAGGAAGUAUGAUGCAGUCACCAGGAGGUGUGAUGCAGUCACUAAGAAGUGUAAUGCAGUCAUCAGGAGGUGUGACACAGUCACUAAGAAGUGUGAUGCAGUCACCAGGAGGUGUG | 0.679 ratio |
| UUAGGUUCACAUACCUGCCUGCUAGUCGGGCAACAUGAAGUAGGACAGUUCUGUUGAUUUUUUAGGGCCAUACUAAAGGGAAUGAGCUGAAACAGACCUCCUGAUACCUUUGCUUAAUUA | 0.163 ratio |
| AGCGGUGGGAACCACAUUGGCGGGUCUGGGUUGGGGUUAAAGGGAGAUUGGAGAUUUGAUUUAGGACCACAAAAAGGCUUUGUGGCUAACAUGGCGUGGCCGUGCAUCACAAGGGCCUGC | 0.604 ratio |

Block 2
Target: Histone acetyltransferase KAT6A, winged helix 2, GST fusion (KAT6A, Homo sapiens, UniProt Q92794, residues 85-181)
Technique: protein binding microarray
Molecule type: double-stranded DNA, one strand shown
Medium: in vitro
Tested at: not given
Notes: 8-mer, flanks averaged, mean of 2 arrays, mostly near background
Baseline: not given
Reading: higher = stronger binding
Construct (chain): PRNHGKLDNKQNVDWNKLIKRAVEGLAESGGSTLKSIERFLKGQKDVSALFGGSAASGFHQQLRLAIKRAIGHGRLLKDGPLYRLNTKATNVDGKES
| Oligonucleotide | E-score |
| --- | --- |
| ACCGTTAA | -0.179 |
| ATGAGTAA | -0.0423 |
| CTATATCC | -0.0911 |
| ATGGCAAA | -0.0234 |
| GTGGCGCA | -0.0772 |
| CCATATTA | 0.0598 |
| TACCCAGA | -0.0115 |
| GGCCACGA | 0.137 |
| AAGTACCA | -0.0392 |
| ATCCCCGA | 0.0349 |
| AGGATAGG | -0.0922 |
| TGAACGCA | 0.0981 |
| GCACCACC | 0.171 |
| AGATTTAA | 0.12 |
| ATATCTCG | 0.101 |
| ATGTGGGG | -0.175 |
| CCTTAAGG | 0.0523 |
| AAAATTAA | 0.148 |
| CTGACACA | 0.0907 |

Block 3
Target: Interferon regulatory factor 5, full length, phosphomimetic (IRF5, Homo sapiens, UniProt Q13568-2, residues 1-514, S451D/S453D/S456D/S462D)
Technique: protein-binding microarray
Molecule type: double-stranded DNA, one strand shown
Medium: in vitro
Tested at: 940 nM top
Notes: 60-bp whole probe
With: salmon DNA 0.4 mg/ml
Baseline: random background probes
Reading: higher = stronger binding
Shared flanks, not repeated: GCCTAGCAC … GTCTTGATTCGCTTGACGCTGCTG
| Oligonucleotide | fitted relative affinity [z-score] |
| --- | --- |
| GACGGTTTCCTTATCATGACGTGCTAG | 1.67 |
| TATAGTTATTTTTATTAAAAGTGCTAG | 0.473 |
| GACGGTTTCGGGAGTGGGGACGTGCTA | 6.83 |
| CAGATGGAATTAAGAAGATGGTGCTAG | -0.682 |
| GACGATTTCAGATTCGAGACGTGCTAG | 0.143 |
| TAAGGTCTCCTTATCCTTTAGTGCTAG | 0.312 |
| GACGTTTTCGGGTATCGAGACGTGCTA | 2.2 |
| TTAGGACTGGACTTTCGGCTAGTGCTA | 0.856 |
| TCATGGATATATATCATACTGTGCTAG | -0.279 |
| TTAGGTCTCCTATTGCTTTAGTGCTAG | -0.087 |
| TTAGATATCGGAACTGGATTAGTGCTA | 0.337 |
| TTAGGTTTCCTTTTCCTATAGTGCTAG | 2.73 |
| GACGGTATCCATCTCCTGACGTGCTAG | 0.501 |
| ATATATATTATATATTTATGTGTGCTA | 0.345 |
| GACGAGCTGGGGTATCGAGACGTGCTA | 1.11 |
| TTAGGACTGGACTATCGCTTAGTGCTA | -0.552 |
| TTAGGTATCCTTTTCCTCTAGTGCTAG | 0.785 |
| GACGAACTGAGTATCGAAACGTGCTAG | 2.69 |
| TTAGGACTGCCTTTCCTTTAGTGCTAG | 0.0322 |

Block 4
Target: Ras GTPase-activating protein-binding protein 1, full length (G3BP1, Homo sapiens, UniProt Q13283)
Sequence of UniProt Q13283 (whole entry, looked up): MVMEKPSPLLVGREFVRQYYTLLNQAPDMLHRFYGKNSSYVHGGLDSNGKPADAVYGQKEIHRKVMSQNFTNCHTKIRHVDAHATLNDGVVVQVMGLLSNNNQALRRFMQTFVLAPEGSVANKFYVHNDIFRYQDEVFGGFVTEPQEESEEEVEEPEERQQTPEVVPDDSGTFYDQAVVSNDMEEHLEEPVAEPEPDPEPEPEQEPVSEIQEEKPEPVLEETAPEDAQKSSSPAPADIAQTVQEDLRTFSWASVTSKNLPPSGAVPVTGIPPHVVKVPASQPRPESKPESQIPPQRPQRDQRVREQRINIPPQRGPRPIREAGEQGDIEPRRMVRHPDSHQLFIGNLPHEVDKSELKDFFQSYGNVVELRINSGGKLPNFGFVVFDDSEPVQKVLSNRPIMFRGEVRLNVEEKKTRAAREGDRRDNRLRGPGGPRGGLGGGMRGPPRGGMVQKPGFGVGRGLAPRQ
Technique: RNA Bind-n-Seq
Molecule type: RNA
Medium: in vitro
Tested at: 200 nM
Notes: whole 134-nt RNA, ends assumed
With: 150 mM KCl
Baseline: input library
Reading: higher = stronger binding
Shared flanks, not repeated: GGGAGUUCUACAGUCCGACGAUC … UGGAAUUCUCGGGUGUCAAGG
| Oligonucleotide | log2 enrichment |
| --- | --- |
| UAACUUUAGAGGAGGAUCUGAUGGAUAUGGCAGUGGACGUGGAUUUGGGGAUGGCUAUAAUGGGUAUGGAGGAGGACCUAGAGGUGGCAA | 0.0131 |
| CUCAAGUCCUGUGCUACACAUCGUAUGUACCGAAUCGGGGUUGGGGUUGGUUGGAAAGUAUUAUGUUACGCCGUUCGGAUCUGCACUUCC | 0.466 |
| CUGUGCUACACAUCGUAUGUACCGAAUCGGUUUUUUUGGGGUUUUUUUGGGGUUUUUUUGGGAAAGUAUUAUGUUACGCCGUUCGGAUCU | -0.86 |
| AAGUCCUGUGCUACACAUCGUAUGUACCGAAUCGGCCCCGGGCCCCGGGGCCCCGGGAAAGUAUUAUGUUACGCCGUUCGGAUCUGCACU | -1.13 |
| UUCCGCCUCUUUCCGGAGUACAAGAACAACAAACUUUUCCUGACCGGGGAGAGCUAUGCUGGCAUCUACAUCCCCACCCUGGCCGUGCUG | 0.8 |
| UGGGCGGCUGCGAGAUGAGAACGGACGACCCUACUCGCCCAGUCAGUAUGCGCUCCAGUACGCCGGGGACGGCAGUGUCCUCCUCAUCCC | 0.661 |
| GUCCUGUGCUACACAUCGUAUGUACCGAAUCGGGGUUUUUGGGUUUUUGGGGUUUUUGGAAAGUAUUAUGUUACGCCGUUCGGAUCUGCA | -0.266 |
| CAAGUCCUGUGCUACACAUCGUAUGUACCGAAUCGGGGAAAGGGGAGGGGAGGGGAAAGUAUUAUGUUACGCCGUUCGGAUCUGCACUUC | 1.43 |
| UCCUCAAGUCCUGUGCUACACAUCGUAUGUACCGAAUCGGGAGGGAGGAGGAAAGUAUUAUGUUACGCCGUUCGGAUCUGCACUUCCAGC | -0.344 |

Some of these lines once more (block 3):
| Oligonucleotide | fitted relative affinity [z-score] |
| --- | --- |
| TTAGGACTGGACTATCGCTTAGTGCTA | -0.552 |
| ATATATATTATATATTTATGTGTGCTA | 0.345 |
| TTAGGTCTCCTATTGCTTTAGTGCTAG | -0.087 |
| GACGGTATCCATCTCCTGACGTGCTAG | 0.501 |
| GACGAACTGAGTATCGAAACGTGCTAG | 2.69 |
